# Measured values gathered from unrelated publications.
# Every numbered part comes from another study and shows a few of its results, in no order.

# Study 1
# Target: RNA binding protein fox-1 homolog 2, RRM domain, GST-SBP tag (RBFOX2, Homo sapiens, UniProt O43251-10, residues 100-194)
# Method: RNA Bind-n-Seq
# Molecule type: RNA
# Matrix: in vitro
# Tested at: 365 nM
# Setting: natural RNA segment, single round, ends assumed
# Baseline: no-protein control
# Direction: higher = stronger binding
# Shared flanks, not repeated: GGGAGUUCUACAGUCCGACGAUC … UGGAAUUCUCGGGUGCCAA
# Target sequence (chain): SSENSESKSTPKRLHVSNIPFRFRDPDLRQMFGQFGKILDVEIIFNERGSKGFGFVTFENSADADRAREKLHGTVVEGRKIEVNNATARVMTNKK
Oligonucleotide,RBNS enrichment (R)
GGAUUCUCGCCUAGCUGAACCAAGAUGUAAAAUAGGAGAAAUGCUCCCUCCAUAGCCAAUCUGCAUCUCGCUCUGGAUGCCCACUCCUGACCUGCCACGCCCUACAUGGU,1.24
AGAUUAGGAUUAAAAUGGAUUUAAUCCAUUUUUAAGGCUGUGUGAAUUUUUCUAAACAAGAACCAUUUGCAAUAUGGAUUUCUUAGAGAUUAAACCAAUUAUAACUUAUU,0.457
GUCUCUGAUACAUAAAAUUAUUUUAAGCAUUUUCUCAAUCAUUAAAUGUUACUGCCAGUCAUAAGUGGCUUUUUAAUUACCAGUUUUCAUUGCACUUCACUCUGUUUUCA,0.583
UGUCUGGGACCCCUUUCUGUGCAUGGGUGCAAUGAUUUAGCCAUGGCUGUGGGCUAUCUGGGUACAAUGAUUUAGCCGUGGCUGUGGGCUAUCUGGGUGCAAUGAUUUAG,14
GGACUACAGGCGCCCACCACCACGCCCGGCUAAUUUUUUGUAUUUUUUAGUAGAGACGGGGUUUCACCAUGUUAGCCAGGAUGGUCUCGAUCUCCUGACCUCGUGAUCCG,0.346
CGGGGUUGUAAGGGAGUCUCAGAACCUCACUGAAUCCUUCACUCCAGUUAAUGGCACUGCUCACUUCCUGCCUCUGCUGCCACCAUCACUGUGUGAAGCUUUCAAGAGCU,0.234
GCUGAUGUUGAUGACAGAAUUUAUUUGGUUGCCUUGUGUGUCAAUUGAAUGCAUACUAAACUGUAAAAAAAAUUUAUUUACAGCAUUGAAAAUUCAGAAGUUAAUGGUUU,0.471
GGUUUUUAUACCCCCACUAAUGCUGUGUAUCUGUCUUUCGUUUGUUAACAUUAUUUGCUUAAUUUCUUUCAACUCACACUUUGGAUAAUACUAUCAAAAACUAAGGCUAA,0.641
GUCCCCGUACCACCAUGCACUGUAAAUAUCCCUCCCCUCUCUCCCUGGUCCCCUCCCCCAUCCCCACCACUGAUAUCAUGGGGAGUAAUAGGACCAGAGCGGUAUCUCUG,0.805
AGACUGUAUCUGUCUACUUUGUGUGACUGUUUUGAGGGACUGUCCCAUCAGUGAACAGAUUGCAUGGCCUUGGAGAGAGACUCUGGGCUUCUGGCUCAGAUGUGUGCAUC,2.26
UUCCUUUUUCAAGACAACACCUGCCUGGCUUCUAUUAAUGUGUGCUGGCCAUGAUAUUGCCCCAAAUCCGCCCCACUGAAGUGUUCCCUAAGGAACAGCAUUUCUCUGCU,1.08
GCCUCAUUAGGCCCAGACUGCUGCUGCUGGUACCAGUCUCCUGAGACACUGCCUCCCUGGAGCCCAUGCAUGCCCAGCUGUUCUUACUGCUUAGUAGCCUUGAAGCAGCA,10.6

# Study 2
# Target: Centromere-binding protein 1, full length, His-tagged (CBF1, Saccharomyces cerevisiae, UniProt P17106, residues 1-351)
# UniProt P17106, sequence (whole entry, looked up): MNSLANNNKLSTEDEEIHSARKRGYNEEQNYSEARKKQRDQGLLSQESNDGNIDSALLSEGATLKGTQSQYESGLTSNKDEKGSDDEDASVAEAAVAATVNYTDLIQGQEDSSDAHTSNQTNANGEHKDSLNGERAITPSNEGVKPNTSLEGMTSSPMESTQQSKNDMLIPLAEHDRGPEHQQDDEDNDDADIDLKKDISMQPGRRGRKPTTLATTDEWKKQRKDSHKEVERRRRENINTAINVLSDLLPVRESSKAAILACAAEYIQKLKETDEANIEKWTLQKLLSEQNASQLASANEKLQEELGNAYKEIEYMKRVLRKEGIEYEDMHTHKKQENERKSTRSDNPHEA
# Method: competition protein-binding microarray
# Molecule type: double-stranded DNA, one strand shown
# Matrix: in vitro
# Tested at: 2 µM
# Setting: whole 60-bp probe, lowest competitor level
# Added: Pho4 competitor, 0.05 µM
# Direction: higher = stronger binding
# Shared flanks, not repeated: … GTCTTGATTCGCTTGACGCTGCTG
Oligonucleotide,fluorescence intensity
CCTACCGCTTCTCCACACGTTTCTTAGATATGCGCG,88.6 a.u.
TGCGCAACAACTTGAGTCGTGGGTGTATGTCTAGAA,67 a.u.
CATCTTATTTACGAACTCGTGATGGTTTTGTAAAAT,624 a.u.
ATACATCCCCAAGTTCACCTGACTGGAACTAGTGGA,205 a.u.
AAATTACTAAGTTGTCACCTCACTTACCCCGTATGA,69.3 a.u.
TGCTGCGGACAGTTCTCCGTGACGGGATCGCGCAAT,64.2 a.u.
TATCTAGGATGCTGCACCGTGGCAACATTCCCCTCG,65.4 a.u.
CGGGGTTAAGTTTGTCGAGTGGGTGGCTTGCAGCAG,72.5 a.u.
CTTCTGTAAATTTGTCACTAAACTTGACGCGCCCCG,94.6 a.u.
CATACCCAACCTTGTTGCGTGGGTGAAGATATTTGT,74.9 a.u.
CGTCCTAGTGATTTTCACGTGCACTCCATGAGGAAG,1280 a.u.
TCAAAGAGTTGAGCGAACGTGACTCCTGGGCTGGCC,239 a.u.
CTAACGAAGGTTTGTCACTTCACTTACAAGCCAAGT,74.4 a.u.
CATACCCAACCTTGGTTAGTGGGTGAAGATATTTGT,59.6 a.u.
AATCTCAGGTTTCGTCACGTTCTGGTGATGACTGTA,303 a.u.
GAGTGGTAGGGAAAGCACGTGTGGATTATTTACGAT,1370 a.u.
TTGAAAGCTGGTACGACCGTGATGGGCGGCGGTGTT,55 a.u.
CCTCCTCTTTTTTTTCACGTGCTTTGCTGATGTAAG,1350 a.u.
CTTCTGTAAATTTGAATAGTGGGTGGACGCGCCCCG,91.2 a.u.
GCTTCTCAACTACAGCTCGTGTTCCTCTTGCAGCAA,91 a.u.
CATACCCAACCTTGTCACACTACTTAAGATATTTGT,103 a.u.
TAAAACCTCGTCTGAATCGTGATGGCCCTCAGAATC,58.5 a.u.

# Study 3
# Target: Ras GTPase-activating protein-binding protein 1, C-terminal RGG region (G3BP1, Homo sapiens, UniProt Q13283)
# UniProt Q13283, sequence (whole entry, looked up): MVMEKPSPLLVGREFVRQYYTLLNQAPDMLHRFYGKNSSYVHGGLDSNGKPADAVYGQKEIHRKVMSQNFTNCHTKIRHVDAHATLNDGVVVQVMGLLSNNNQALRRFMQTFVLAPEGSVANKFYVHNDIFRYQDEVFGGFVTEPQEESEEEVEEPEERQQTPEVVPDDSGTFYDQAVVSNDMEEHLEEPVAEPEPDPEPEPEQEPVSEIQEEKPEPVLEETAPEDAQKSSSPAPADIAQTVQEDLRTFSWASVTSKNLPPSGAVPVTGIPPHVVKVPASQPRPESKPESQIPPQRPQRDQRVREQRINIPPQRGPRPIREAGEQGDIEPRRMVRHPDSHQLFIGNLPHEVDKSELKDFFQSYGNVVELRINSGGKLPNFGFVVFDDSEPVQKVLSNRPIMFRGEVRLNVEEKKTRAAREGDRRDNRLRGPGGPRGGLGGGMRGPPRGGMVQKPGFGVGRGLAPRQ
# Method: RNA Bind-n-Seq
# Molecule type: RNA
# Matrix: in vitro
# Tested at: 1 µM
# Setting: whole 134-nt RNA, ends assumed
# Added: 150 mM KCl
# Baseline: input library
# Direction: higher = stronger binding
# Shared flanks, not repeated: GGGAGUUCUACAGUCCGACGAUC … UGGAAUUCUCGGGUGUCAAGG
Oligonucleotide,log2 enrichment
UCAAGUCCUGUGCUACACAUCGUAUGUACCGAAUCGGGGCCGGGGCCGGGCCGGAAAGUAUUAUGUUACGCCGUUCGGAUCUGCACUUCC,-1.9
CACAGACAACACGCACCCACACAGACACAGAGGGAAGGGGUUGGGAUGGGGACAGGGUGCACAGCAGGGCGGGGUGGGACCCCAGCCCCU,-0.884
GUCCUGUGCUACACAUCGUAUGUACCGAAUCAAACCCCCCCAAAUUUUUAAAUUUAAAAAAGUAUUAUGUUACGCCGUUCGGAUCUGCAC,-0.278
UGGCCCUGGUGGCAUGCGGGGAGGAAGAGGUGGCCUCAUGGAGCGUGGUGGUCCCGGUGGAAUGUUCAGAGGUGGCCGUGGUGGAGACAG,2.23
CUCAAGUCCUGUGCUACACAUCGUAUGUACCGAAUCGGGUUGGGUUGGGUUGGGAAAGUAUUAUGUUACGCCGUUCGGAUCUGCACUUCC,2.29
UGGCAUGGAUCCAGUGGGCUGAGACCACCCUCAUUCAGCGGGAUCAGGAGCCAAUCCCGCAGAACAUUGACCGAGUUAAAGCCCUUAUCG,-1.37
ACCAUGCAGGUGGGCAUCUUUGGGAAGUGGGGCAAGGGAGGGAUAGGGAGGGGGGUAACACUUUGGGAACAGGUGGUCCCAGGUCGUUUC,-1.42
CCUGUGCUACACAUCGUAUGUACCGAAUCGGGGAAAAAGGGGUUUUUUUGGGGAAAGGGGAAAGUAUUAUGUUACGCCGUUCGGAUCUGC,0.537
CAAGUCCUGUGCUACACAUCGUAUGUACCGAAUCGGGUUUGGUUUGGGGUUUGGGGAAAGUAUUAUGUUACGCCGUUCGGAUCUGCACUU,-0.00811
UGGCCCUGGUGGCAUGCGGGGAGGAAGAGGUGGCCUCAUGGAUCGUGGUGGUCCCGGUGGAACGUUCAGAGGUGGCCGUGGUGGAGACAG,1.65
UGGGAGGUGGAUUUUGUUUAUAUUUUUAGCUCAUUUCCAGGGGUGGGAAUUUUUUUUUAAUAUGUGUCAUGAAUAAAGUUGUUUUUGAAA,3.45
CUCAAGUCCUGUGCUACACAUCGUAUGUACCGAAUCGGUUUGGAAAAAGGAGGAAAGUAUUAUGUUACGCCGUUCGGAUCUGCACUUCCA,-1.23
AAGUCCUGUGCUACACAUCGUAUGUACCGAAUCGGCCCCGGGCCCCGGGCCCCGGGAAAGUAUUAUGUUACGCCGUUCGGAUCUGCACUU,-2.02
CACAGACAACACGCACCCACACAGACACAGAGGGAAGGGGUUGGGAUGGGGACAGGGUGCCCAGCAGGGCGGGGUAGGACCCCAGCCCCU,-0.289

# Study 4
# Target: Sal-like protein 4, full length isoform A (SALL4, Homo sapiens, UniProt Q9UJQ4, residues 1-1053)
# UniProt Q9UJQ4, sequence (whole entry, looked up): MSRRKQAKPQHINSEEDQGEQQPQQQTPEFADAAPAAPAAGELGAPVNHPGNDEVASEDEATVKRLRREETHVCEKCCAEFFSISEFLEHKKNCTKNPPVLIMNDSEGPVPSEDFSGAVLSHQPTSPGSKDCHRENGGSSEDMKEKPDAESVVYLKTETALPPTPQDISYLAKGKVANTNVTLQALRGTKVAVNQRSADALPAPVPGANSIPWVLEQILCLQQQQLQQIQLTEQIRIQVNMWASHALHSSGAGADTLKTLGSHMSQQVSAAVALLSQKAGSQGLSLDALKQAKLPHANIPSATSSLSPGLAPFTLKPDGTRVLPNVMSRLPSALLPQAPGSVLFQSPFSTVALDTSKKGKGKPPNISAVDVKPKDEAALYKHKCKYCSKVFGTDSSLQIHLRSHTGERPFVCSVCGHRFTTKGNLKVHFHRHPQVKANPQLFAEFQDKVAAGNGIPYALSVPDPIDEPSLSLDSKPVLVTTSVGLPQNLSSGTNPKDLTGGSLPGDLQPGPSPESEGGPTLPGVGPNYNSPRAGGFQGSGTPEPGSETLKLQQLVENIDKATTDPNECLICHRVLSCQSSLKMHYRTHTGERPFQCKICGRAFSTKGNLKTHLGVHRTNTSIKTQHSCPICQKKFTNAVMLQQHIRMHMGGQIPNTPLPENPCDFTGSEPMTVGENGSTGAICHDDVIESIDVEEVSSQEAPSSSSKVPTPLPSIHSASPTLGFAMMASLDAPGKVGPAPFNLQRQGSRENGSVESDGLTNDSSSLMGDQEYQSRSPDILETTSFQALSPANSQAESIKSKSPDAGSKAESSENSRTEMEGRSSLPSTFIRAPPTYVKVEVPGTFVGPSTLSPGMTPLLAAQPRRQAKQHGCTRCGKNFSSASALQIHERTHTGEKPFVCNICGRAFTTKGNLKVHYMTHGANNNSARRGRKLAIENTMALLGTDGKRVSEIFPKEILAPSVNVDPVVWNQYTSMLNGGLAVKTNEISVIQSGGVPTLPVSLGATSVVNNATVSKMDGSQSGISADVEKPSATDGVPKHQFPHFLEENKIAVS
# Method: universal PBM
# Molecule type: double-stranded DNA, one strand shown
# Matrix: in vitro
# Tested at: 600 nM
# Setting: 8-mer, flanks averaged, mean of replicates
# Direction: higher = stronger binding
Oligonucleotide,E-score
CCAACAAG,-0.121
AATCGTAG,0.248
TTTACAAA,0.296
TAGGTACA,0.0426
ATTGTTGG,0.143
GATAGCAC,-0.0637
CTGGAGGA,-0.0467
CATTCCGA,0.0917
ATGCCGAC,-0.118
GTTCATGA,0.0402
CATGCGAC,0.00814
AGCAGACG,-0.239
ATTGCACC,0.0393
AAACTCCG,-0.0849
CAGTTCGA,-0.0992
CAAGCAGG,-0.173
AAGCTGTG,-0.0127
CAAACAAA,0.124
ATGAAATA,0.341
ACAATACC,0.205
CCGGCGTA,-0.297

# Study 5
# Target: Histone acetyltransferase KAT6A, both winged helices, GST fusion (KAT6A, Homo sapiens, UniProt Q92794, residues 1-181)
# Method: protein binding microarray
# Molecule type: double-stranded DNA, one strand shown
# Matrix: in vitro
# Tested at: not given
# Setting: 8-mer, flanks averaged, mean of 2 arrays, mostly near background
# Baseline: not given
# Direction: higher = stronger binding
# Residues (chain): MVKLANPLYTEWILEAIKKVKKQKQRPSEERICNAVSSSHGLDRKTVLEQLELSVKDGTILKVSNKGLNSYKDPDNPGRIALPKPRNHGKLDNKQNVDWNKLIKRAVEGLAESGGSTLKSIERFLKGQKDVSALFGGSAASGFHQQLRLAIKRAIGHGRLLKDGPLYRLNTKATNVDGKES
Oligonucleotide,E-score
ATATCGAC,-0.0477
CGCTATGC,0.286
ACCCCGCG,0.291
AGGACGTG,-0.145
GGCTAATA,0.0568
AGTAAACG,0.0849
TCTATGAA,-0.075
CGACTTAC,0.0161
AATACCCT,-0.0754
CTCTGCGA,0.0261
CGCACCTA,0.0347
ATCCTCTC,-0.243
AATTTGTG,0.0448
AGCCAGTG,-0.141
ACGGGTTC,0.212
GGGTAGAA,0.0148
CCGGATCG,0.0418
AGTGAACG,-0.142
AAGAGATC,-0.153
GAGCGCAA,0.191
TGCGAGCA,-0.0639

# For quick reference, copied from above (study 4):
Oligonucleotide,E-score
CCGGCGTA,-0.297
GATAGCAC,-0.0637
CTGGAGGA,-0.0467
CATGCGAC,0.00814
AAGCTGTG,-0.0127
AGCAGACG,-0.239
ATGCCGAC,-0.118
TTTACAAA,0.296
